Assay results gathered from unrelated publications.
A part holds a random share of what one study measured. Changes are numbered by the printed parent chain.

Set 1
Target: CCND2, cyclin fold, Cln2 fusion (human)
Method: yeast growth competition, sequencing
Sample: yeast
Notes: weak parent motif
Reference: not given
Reading: higher = stronger binding
Starting sequence: E2F8 docking peptide (human); FVPQRKLEVSTED
For `FVPQRKLEVSTAD [E12A]`, “normalised enrichment score” read -0.049.
Under “normalised enrichment score”, `FVPQKKLEFSTED [R5K V9F]` is recorded as -0.152.
`FVPQAKLEVSTED [R5A]` — result for “normalised enrichment score”: -0.00403.
`AVPQRKLEVSTED [F1A]` — result for “normalised enrichment score”: 0.16.
Under “normalised enrichment score”, `FVPQRKAEVSTED [L7A]` is recorded as 0.144.
For `FVPQRKLEASTED [V9A]`, “normalised enrichment score” read 0.0912.
`FVPQKKLEVSTED [R5K]` — result for “normalised enrichment score”: 0.0865.
`FVPQRKLEVSTEA [D13A]`: “normalised enrichment score” -0.315.

Set 2
Target: Ras GTPase-activating protein-binding protein 1, C-terminal RGG region (G3BP1, Homo sapiens, UniProt Q13283)
Chain of UniProt Q13283 (whole entry, looked up): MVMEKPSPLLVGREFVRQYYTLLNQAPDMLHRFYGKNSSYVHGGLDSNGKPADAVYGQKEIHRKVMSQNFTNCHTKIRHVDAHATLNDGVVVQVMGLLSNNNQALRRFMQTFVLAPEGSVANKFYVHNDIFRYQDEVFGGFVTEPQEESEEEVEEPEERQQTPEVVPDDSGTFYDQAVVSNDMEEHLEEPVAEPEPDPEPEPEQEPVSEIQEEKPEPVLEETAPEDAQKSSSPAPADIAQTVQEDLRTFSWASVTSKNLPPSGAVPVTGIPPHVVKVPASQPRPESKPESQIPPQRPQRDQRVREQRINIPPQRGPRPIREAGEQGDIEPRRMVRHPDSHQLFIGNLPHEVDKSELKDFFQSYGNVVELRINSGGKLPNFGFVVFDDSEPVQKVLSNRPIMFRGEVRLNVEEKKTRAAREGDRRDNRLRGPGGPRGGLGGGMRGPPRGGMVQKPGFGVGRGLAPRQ
Method: RNA Bind-n-Seq
Molecule type: RNA
Sample: in vitro
Concentration: 1 µM
Notes: whole 134-nt RNA, ends assumed
Added: 150 mM KCl
Reference: input library
Reading: higher = stronger binding
With `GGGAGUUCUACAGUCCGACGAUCUUGUCUUCUGAGAUGUUGGGCCCCUCUUGGGAUGGAGAUGAAGCAGAAUCCACUGGUGAAAUCAUUAGACUUGGAGACACAGCACACACCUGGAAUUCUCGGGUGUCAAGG` the log2 enrichment was -0.413.
The log2 enrichment of `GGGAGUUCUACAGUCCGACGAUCUCCUCAAGUCCUGUGCUACACAUCGUAUGUACCGAAUCGGUGGGUGGGUGGAAAGUAUUAUGUUACGCCGUUCGGAUCUGCACUUCCAGCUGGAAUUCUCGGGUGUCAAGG` is reported as 0.0911.
With `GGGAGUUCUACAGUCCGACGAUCACCAUGCAGGUGGGCAUCUUUGGGAAGUGGGGCAAGGGGGGGAUAGGGAGGAGGGUAACACUUUGGGAACAGGUGGUCCCAGGUCGUUUCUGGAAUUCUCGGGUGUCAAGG` the log2 enrichment was 1.45.
`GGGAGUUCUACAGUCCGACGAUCACCAUGCAGGUGGGCAUCUUUGGGCAGUGGGGCAAGGGGGGGAUAGGGAGGGGGGUAACACUUUGGGAACAGGUGGUCCCAGGUCGUUUCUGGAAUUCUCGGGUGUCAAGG` gave a log2 enrichment of -0.881.
`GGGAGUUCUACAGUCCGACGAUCGCAGGAAGUAAAAACAAAUGGAAAUGCUUCGGAUAGUGGCAGGGGUGGGGGUUGUUAAGGAAAGGGUGGGAUGGGAGUGGGUAAAGAGUUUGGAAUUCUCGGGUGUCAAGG` gave a log2 enrichment of 1.67.
With `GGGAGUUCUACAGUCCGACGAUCCAAGUCCUGUGCUACACAUCGUAUGUACCGAAUCGGUUUUUGGAAAAAGGAAAGGAAAGUAUUAUGUUACGCCGUUCGGAUCUGCACUUCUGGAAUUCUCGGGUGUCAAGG` the log2 enrichment was -1.78.
The log2 enrichment of `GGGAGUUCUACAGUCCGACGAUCUAACUUUAGAGGAGGAUCUGAUGGAUAUGGCAGUGGACGUGGAUUUGGGGAUGGCUAUAAUGGUUAUGGAGGAGGACCUGGAGGUGGCAAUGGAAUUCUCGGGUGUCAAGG` is reported as -0.691.
The log2 enrichment of `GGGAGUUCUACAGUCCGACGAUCAAGUCCUGUGCUACACAUCGUAUGUACCGAAUCGGGGUUUGGGGUUUGGGGAGGGGAAAGUAUUAUGUUACGCCGUUCGGAUCUGCACUUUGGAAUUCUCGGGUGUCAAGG` is reported as 3.41.
For `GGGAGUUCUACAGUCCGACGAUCGCAGGAAGUAAAAACAAAUGGAAAUGCUUCGGAUAGUGGCAGGGGUGGGGGUUGCUAAGGAAAGGGUGGGAUGGCAGUGGGUAAAGAGUUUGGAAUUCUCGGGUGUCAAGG`, the log2 enrichment was 1.89.
`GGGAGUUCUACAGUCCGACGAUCUUCCUCAAGUCCUGUGCUACACAUCGUAUGUACCGAAUCGGUGGUGGAGGAAAGUAUUAUGUUACGCCGUUCGGAUCUGCACUUCCAGCAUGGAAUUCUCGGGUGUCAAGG` has a log2 enrichment of -1.01.

Set 3
Target: Prothrombin, mature alpha-thrombin (F2, Homo sapiens, UniProt P00734)
Method: aptamer microarray, sandwich
Molecule type: DNA with 2'F-ANA
Sample: in vitro
Concentration: 200 nM
Notes: whole 15-mer aptamer, many near background
Added: Cy3 exosite-II aptamer, 400 nM
Reading: higher = stronger binding
Sequence: GGTTGGTGTGGTTGG
Under “mean fluorescence intensity”, `2'F-ANA at 1 3 4 6 7 11 15` is recorded as 164 a.u.
`2'F-ANA at 2 3 6 7 8 9` — result for “mean fluorescence intensity”: 742 a.u.
Under “mean fluorescence intensity”, `2'F-ANA at 1 2 5 8 13 15` is recorded as 50.6 a.u.
For `2'F-ANA at 2 5 8 11 12 13 15`, “mean fluorescence intensity” read 111 a.u.
`2'F-ANA at 3 5 6 7 9 10 11 12` — result for “mean fluorescence intensity”: 61.3 a.u.
Under “mean fluorescence intensity”, `2'F-ANA at 1 6 7 8 9 11 12 14` is recorded as 73.4 a.u.
For `2'F-ANA at 4 8 10 12 15`, “mean fluorescence intensity” read 118 a.u.
Under “mean fluorescence intensity”, `2'F-ANA at 2 4 7 8 9` is recorded as 451 a.u.
Under “mean fluorescence intensity”, `2'F-ANA at 1 3 4 5 6 8 12 13 14 15` is recorded as 50.2 a.u.
For `2'F-ANA at 1 2 3 4 5 7 8 9 10 11`, “mean fluorescence intensity” read 77.1 a.u.
`2'F-ANA at 1 2 3 4 5 11 14 15`: “mean fluorescence intensity” 45.1 a.u.
For `2'F-ANA at 2 7 8 10 11 15`, “mean fluorescence intensity” read 121 a.u.
For `2'F-ANA at 1 2 4 6 7 8 9 10`, “mean fluorescence intensity” read 53.5 a.u.
`2'F-ANA at 2 4 6 9 13 14 15` — result for “mean fluorescence intensity”: 70.7 a.u.
`2'F-ANA at 1 2 3 4 5 8 9 10 12 14 15`: “mean fluorescence intensity” 178 a.u.
Under “mean fluorescence intensity”, `2'F-ANA at 2 5 7 12 13 15` is recorded as 106 a.u.
Under “mean fluorescence intensity”, `2'F-ANA at 3 5 6 9 10 11 12 13` is recorded as 62.6 a.u.
`2'F-ANA at 4 6 11 12 14 15`: “mean fluorescence intensity” 93 a.u.
`2'F-ANA at 1 2 3 6 7 8 9 10 13 14 15`: “mean fluorescence intensity” 112 a.u.
Under “mean fluorescence intensity”, `2'F-ANA at 2 4 5 8 9 11 12 14` is recorded as 51.3 a.u.
`2'F-ANA at 1 3 5 15` — result for “mean fluorescence intensity”: 63.4 a.u.
Under “mean fluorescence intensity”, `2'F-ANA at 1 2 4 5 6 7 8 9 10 12` is recorded as 68.4 a.u.
`2'F-ANA at 2 3 4 5 10 13 15` — result for “mean fluorescence intensity”: 47.8 a.u.
`2'F-ANA at 1 3 4 5 6 9 12` — result for “mean fluorescence intensity”: 122 a.u.
`2'F-ANA at 1 4 6 7 11 12 13 15`: “mean fluorescence intensity” 138 a.u.

Set 4
Target: ABI1, truncated, D143A, DHFR fusion (Arabidopsis thaliana)
Method: DHFR PCA, deep sequencing
Sample: yeast
Notes: methotrexate growth selection, single substitutions
Added: (+)-ABA 0 µM
Reference: wild-type fitted maximum
Reading: higher = stronger binding
Starting sequence: PYL1, truncated, DHFR fusion (Arabidopsis thaliana); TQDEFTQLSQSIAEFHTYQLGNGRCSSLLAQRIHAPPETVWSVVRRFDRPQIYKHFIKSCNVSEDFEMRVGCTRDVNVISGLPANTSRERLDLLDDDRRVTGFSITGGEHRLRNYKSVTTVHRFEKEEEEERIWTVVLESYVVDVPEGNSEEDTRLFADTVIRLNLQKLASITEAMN; partner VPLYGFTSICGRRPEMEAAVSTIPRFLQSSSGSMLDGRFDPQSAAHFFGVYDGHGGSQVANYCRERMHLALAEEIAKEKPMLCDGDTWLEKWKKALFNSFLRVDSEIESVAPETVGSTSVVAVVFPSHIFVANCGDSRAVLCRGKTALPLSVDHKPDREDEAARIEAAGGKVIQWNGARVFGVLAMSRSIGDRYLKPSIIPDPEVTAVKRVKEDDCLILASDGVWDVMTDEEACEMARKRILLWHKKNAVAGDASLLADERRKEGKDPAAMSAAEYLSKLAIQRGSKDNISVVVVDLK
`K168M` — result for “relative binding score”: 5.24%.
For `D65Y`, “relative binding score” read -0.987%.
`R32Q`: “relative binding score” 14.8%.
`E152A` — result for “relative binding score”: 13.3%.
Under “relative binding score”, `V70H` is recorded as -2%.
`Y141D`: “relative binding score” 4.74%.
`N22S`: “relative binding score” 36.9%.
For `I133P`, “relative binding score” read 46.8%.
For `S87C`, “relative binding score” read 35.8%.
Under “relative binding score”, `H16I` is recorded as 3.74%.
`R46A`: “relative binding score” 20.2%.
`S87T` — result for “relative binding score”: 38.4%.
`A170I` — result for “relative binding score”: -11.3%.
`S80C` — result for “relative binding score”: 32.6%.
`G102T` — result for “relative binding score”: -5.76%.
Under “relative binding score”, `T73K` is recorded as 3.99%.

For quick reference, copied from above (set 3):
Under “mean fluorescence intensity”, `2'F-ANA at 2 5 7 12 13 15` is recorded as 106 a.u.
`2'F-ANA at 2 4 6 9 13 14 15` — result for “mean fluorescence intensity”: 70.7 a.u.
`2'F-ANA at 1 3 5 15` — result for “mean fluorescence intensity”: 63.4 a.u.
Under “mean fluorescence intensity”, `2'F-ANA at 1 2 4 5 6 7 8 9 10 12` is recorded as 68.4 a.u.
